# Experimental data pooled from the literature.
# Protocols differ between the studies behind these lines. Several values in a cell are separate wells, animals, samples, runs or records.
SMILES,cell line,assay,system,setting,scale,quantity,value
CN(C)CCCNC(=O)[C@@H]1NC(=O)[C@@H]2Cc3ccc(cc3)Oc3cc4cc(c3O)-c3ccc5c(c[nH]c5c3)C[C@@H](NC(=O)C(NC(=O)CCCCCN)c3ccc(O)cc3)C(=O)N[C@H](c3ccc(O)cc3)C(=O)N[C@H]4C(=O)N[C@@H](C(=O)N2C)c2ccc(cc2)Oc2cc1ccc2O (some centres unmarked),human red blood cells,,PBS,"256 µg/mL, 1 h, pH 7.4, 37 °C",,hemolysis,0%
CNC(=O)C[C@H](Cc1ccncc1)NC(=O)[C@@H](Cc1cccc(Br)c1)NC(=O)[C@@H](N)Cc1ccsc1,Huh-7-ACE2,CellTiter-Glo,,"0.195 µM, 48 h, unit not given",relative to: DMSO,viability,0.961 and 1.08 and 1.24
CC(=O)N[C@H]1[C@H](Oc2ccc(C[C@H](NC(=O)CN)C(=O)N[C@@H](CCC(=O)O)C(=O)N[C@H](C(=O)N[C@@H](Cc3c[nH]cn3)C(=O)N[C@@H](Cc3c[nH]cn3)C(=O)N[C@@H](CCC(N)=O)C(=O)N[C@@H](CCCCN)C(=O)N[C@@H](CC(C)C)C(=O)N[C@H](C(=O)N[C@@H](Cc3ccccc3)C(=O)N[C@@H](Cc3ccccc3)C(=O)N[C@@H](C)C(N)=O)C(C)C)C(C)C)cc2)O[C@H](CO)[C@H](O)[C@@H]1O,SH-SY5Y,CCK-8,,"50 µM, 24 h",relative to: untreated,viability,95.6% and 95.9% and 86.7% and 96.3%
CNC(=O)C[C@H](Cc1ccncc1)NC(=O)[C@@H](Cc1cccc(Br)c1)NC(=O)[C@@H](N)Cc1cccc(F)c1,Huh-7-ACE2,CellTiter-Glo,,"0.0488 µM, 48 h, unit not given",relative to: DMSO,viability,1 and 0.985 and 0.971
CCCCCCCCCCCC1CC(=O)N[C@H]([C@H](C)O)C(=O)N[C@@H](CN)C(=O)N[C@@H](CO)C(=O)N[C@@H](Cc2ccc(O)cc2)C(=O)O1 (some centres unmarked),HEK293,MTT,,32 mg,,survival,84.1%
CN1CCN(c2ccc(Nc3cc4[nH]c(-c5cccc(F)c5)cc4cn3)cc2)CC1,SH-SY5Y,"cytotoxicity, sulforhodamine B",,72 h,,IC50,4.99 µM
CCCCCCc1cccc([C@H](O)C[C@H](CO)NC(=O)CCCCCCCCCCBr)c1,HeLa,,,"1 µM, lipidomics treatment",,living cells,95% and 96% and 90%
CNC(=O)CC[C@H](Cc1ccccc1)NC(=O)[C@@H](Cc1ccc(Cl)cc1Cl)NC(=O)[C@H](N)Cc1ccccc1[N+](=O)[O-],Huh-7-ACE2,CellTiter-Glo,,"0.195 µM, 48 h, unit not given",relative to: DMSO,viability,0.868 and 0.977 and 0.886
COc1cc(C(=O)C(=O)N2CCCC[C@H]2C(=O)OC(CCCc2ccccc2)CCCc2cccnc2)cc(OC)c1OC (some centres unmarked),mouse CD8+ T cells,,,10 µM,,toxicity,toxic
CNC(=O)C[C@H](Cc1ccc(F)cc1)NC(=O)[C@@H](Cc1ccc(Cl)cc1Cl)NC(=O)[C@H](N)Cc1ccccc1C#N,Huh-7-ACE2,CellTiter-Glo,,"0.0061 µM, 48 h, unit not given",relative to: DMSO,viability,0.944 and 0.994 and 0.991
O=c1n(CCNCCOS(=O)(=O)c2ccccc2)c(=O)n(S(=O)(=O)c2ccccc2)c(=O)n1S(=O)(=O)c1ccccc1,HUVEC,"cell growth or viability, MTT",,"25 µg/mL, 48 h",,viability,38.7%
CCOc1ccc(CN2CC[C@H]2C(=O)NC)cc1-c1cccc(C(=O)NC[C@@H]2COC(C)(C)O2)c1,Huh-7-ACE2,CellTiter-Glo,,"0.0488 µM, 48 h, unit not given",relative to: DMSO,viability,0.918 and 0.904 and 1.01
CCc1nc2ccc(C(=O)NCCCn3ccnc3)cn2c1N(C)Cc1ccc(N(C)C)cc1,SH-SY5Y,sulforhodamine B,,"100 µM, 72 h",,cell density reduction,27%
CC(=O)NCC(=O)N[C@@H](CCCNC(=N)N)C(=O)N[C@@H](CCCCN)C(=O)N[C@@H](CCCCN)C(=O)N[C@@H](CCCNC(=N)N)C(=O)N[C@@H](CCCNC(=N)N)C(=O)N[C@@H](CCC(N)=O)C(=O)N[C@@H](CCCNC(=N)N)C(=O)N[C@@H](CCCNC(=N)N)C(=O)N[C@@H](CCCNC(=N)N)C(=O)N1CCC[C@H]1C(=O)N[C@@H](CCC(N)=O)C(N)=O,HEK293T,subcellular fractionation LC-MS,cytoplasm,"20 µM, 2 h",,cytoplasmic peptide amount,0.0636 nmol and 0.0588 nmol and 0.0794 nmol
Cc1ccc(NCCN(C)C)c2c(=O)c3cc(O)ccc3sc12,HEK293T,loss of viability,,0.1 µM,,cytotoxicity,< 10%
O[Si](CCCN1CCCCC1)(c1ccc(F)cc1)C1CCCCC1 (centres unmarked),HEK293T,cytotoxicity,,3 days,,IC50,40.8 µM
CNC(=S)N/N=C/c1ccc(OCc2ccccc2)cc1,IMR-32,MTT,,"300 µg/mL, 24 h",relative to: untreated control,viability,58.8%
CCCCCCCCCCCC1CC(=O)N[C@@H]([C@@H](C)O)C(=O)N[C@@H](Cc2ccccc2)C(=O)N[C@@H]([C@@H](C)O)C(=O)N[C@H]([C@H](C)O)C(=O)N[C@@H]([C@@H](C)O)C(=O)N[C@@H](Cc2ccccc2)C(=O)O1 (some centres unmarked),HEK293,MTT,,32 mg,,survival,-4.8%
CNC(=O)CC1CN(C(=O)c2ccc(C(F)(F)F)cn2)CCN1C(=O)c1cccnn1 (centres unmarked),Huh-7-ACE2,CellTiter-Glo,,"0.0061 µM, 48 h, unit not given",relative to: DMSO,viability,1.07 and 0.995 and 1.09
CCCCN(C=O)c1c(CC)nc2ccc(C(=O)N(C)Cc3ccco3)cn12,SH-SY5Y,sulforhodamine B,,concentration not given,,cytotoxicity,toxic
